Assay results collected from several papers.
Lines come from different studies, so protocols differ. Values joined by “and” are separate records of one study, mostly repeats; a detail may differ. Numbers after ± are the reported error.
KDM1A: Lysine-specific histone demethylase 1A (KDM1A, Homo sapiens, UniProt O60341)
CASP1: Caspase-1 (CASP1, Homo sapiens, UniProt P29466)
Chain of UniProt P29466 (whole entry, looked up): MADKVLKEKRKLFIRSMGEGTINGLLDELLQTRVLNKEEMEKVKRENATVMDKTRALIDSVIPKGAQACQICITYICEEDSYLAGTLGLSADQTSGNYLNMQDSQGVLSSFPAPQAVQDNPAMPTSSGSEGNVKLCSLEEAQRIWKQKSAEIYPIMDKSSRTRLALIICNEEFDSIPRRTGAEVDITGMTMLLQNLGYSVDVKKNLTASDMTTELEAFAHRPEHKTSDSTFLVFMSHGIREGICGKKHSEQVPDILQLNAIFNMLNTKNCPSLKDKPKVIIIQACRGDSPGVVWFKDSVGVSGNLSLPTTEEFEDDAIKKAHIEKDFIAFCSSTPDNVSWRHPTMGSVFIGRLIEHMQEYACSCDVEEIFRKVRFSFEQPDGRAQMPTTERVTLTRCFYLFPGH
Rhomboid protease AarA: Rhomboid protease AarA (Providencia stuartii, UniProt P46116)
Chain of UniProt P46116 (whole entry, looked up): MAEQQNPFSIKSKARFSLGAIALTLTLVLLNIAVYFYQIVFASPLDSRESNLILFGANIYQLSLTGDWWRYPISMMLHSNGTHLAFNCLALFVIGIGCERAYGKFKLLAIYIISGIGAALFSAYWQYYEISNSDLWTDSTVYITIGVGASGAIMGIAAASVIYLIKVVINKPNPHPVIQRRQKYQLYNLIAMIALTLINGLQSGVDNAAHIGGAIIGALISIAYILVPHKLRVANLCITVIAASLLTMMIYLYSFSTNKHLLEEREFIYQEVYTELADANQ
T1: FMN riboswitch RNA 1-247 C175U/G176C (Escherichia coli); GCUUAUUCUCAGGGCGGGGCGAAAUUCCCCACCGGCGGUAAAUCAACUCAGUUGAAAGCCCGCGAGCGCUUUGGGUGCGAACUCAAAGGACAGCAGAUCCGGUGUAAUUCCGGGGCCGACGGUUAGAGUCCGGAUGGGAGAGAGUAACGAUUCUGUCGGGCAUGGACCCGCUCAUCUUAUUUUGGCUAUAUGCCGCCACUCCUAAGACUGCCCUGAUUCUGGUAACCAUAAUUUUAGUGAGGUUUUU
T2: ssRNA, hairpin with 1x1 G/G internal loops (Homo sapiens); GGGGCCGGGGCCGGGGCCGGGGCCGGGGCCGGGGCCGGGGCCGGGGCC
Chain of UniProt Q13148 (whole entry, looked up): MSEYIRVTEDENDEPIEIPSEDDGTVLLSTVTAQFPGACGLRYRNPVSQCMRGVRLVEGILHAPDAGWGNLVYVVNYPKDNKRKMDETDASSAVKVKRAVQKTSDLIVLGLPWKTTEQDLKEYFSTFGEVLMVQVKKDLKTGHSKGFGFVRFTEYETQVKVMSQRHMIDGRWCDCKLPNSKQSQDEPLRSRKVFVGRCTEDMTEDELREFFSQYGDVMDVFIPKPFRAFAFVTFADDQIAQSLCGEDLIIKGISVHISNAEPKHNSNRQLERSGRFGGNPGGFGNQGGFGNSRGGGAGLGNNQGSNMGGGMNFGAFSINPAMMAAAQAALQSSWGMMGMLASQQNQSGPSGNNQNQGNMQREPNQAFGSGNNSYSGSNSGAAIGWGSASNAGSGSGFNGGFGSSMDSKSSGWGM
Chain of UniProt P46089 (whole entry, unmodified, looked up): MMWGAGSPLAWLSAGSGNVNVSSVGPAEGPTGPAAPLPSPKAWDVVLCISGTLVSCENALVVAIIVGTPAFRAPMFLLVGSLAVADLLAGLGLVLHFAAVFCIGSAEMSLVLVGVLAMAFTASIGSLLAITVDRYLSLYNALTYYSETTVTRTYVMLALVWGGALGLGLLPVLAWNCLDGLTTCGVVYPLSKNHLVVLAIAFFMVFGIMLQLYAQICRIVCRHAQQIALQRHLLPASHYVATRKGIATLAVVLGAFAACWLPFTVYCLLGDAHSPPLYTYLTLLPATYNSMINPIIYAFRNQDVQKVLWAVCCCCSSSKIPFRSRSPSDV
Chain of UniProt Q80YA3 (whole entry, looked up): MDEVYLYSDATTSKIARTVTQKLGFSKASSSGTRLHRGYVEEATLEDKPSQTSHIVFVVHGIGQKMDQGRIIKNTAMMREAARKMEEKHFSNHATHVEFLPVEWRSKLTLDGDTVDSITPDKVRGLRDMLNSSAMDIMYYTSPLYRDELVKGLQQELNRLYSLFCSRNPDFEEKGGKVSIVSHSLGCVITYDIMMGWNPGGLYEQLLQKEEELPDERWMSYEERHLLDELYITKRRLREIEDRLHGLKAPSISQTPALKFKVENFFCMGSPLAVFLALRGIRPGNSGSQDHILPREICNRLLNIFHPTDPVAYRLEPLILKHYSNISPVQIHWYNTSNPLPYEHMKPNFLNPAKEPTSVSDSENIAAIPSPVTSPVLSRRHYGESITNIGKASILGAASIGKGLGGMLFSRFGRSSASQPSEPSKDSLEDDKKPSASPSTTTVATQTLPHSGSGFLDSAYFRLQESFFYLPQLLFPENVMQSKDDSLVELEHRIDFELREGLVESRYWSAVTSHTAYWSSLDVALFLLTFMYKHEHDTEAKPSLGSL
Chain of UniProt Q9BQ69 (whole entry, looked up): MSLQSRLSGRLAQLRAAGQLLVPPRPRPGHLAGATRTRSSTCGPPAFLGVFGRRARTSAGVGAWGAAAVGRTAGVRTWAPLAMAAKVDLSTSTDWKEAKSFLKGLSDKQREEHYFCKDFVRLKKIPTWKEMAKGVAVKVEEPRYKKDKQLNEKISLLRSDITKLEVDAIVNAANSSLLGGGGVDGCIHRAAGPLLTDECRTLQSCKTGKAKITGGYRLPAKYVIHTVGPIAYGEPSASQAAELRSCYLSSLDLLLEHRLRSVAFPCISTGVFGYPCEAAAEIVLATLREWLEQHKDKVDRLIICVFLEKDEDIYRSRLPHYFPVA
Chain of UniProt P00519 (whole entry, unmodified, looked up): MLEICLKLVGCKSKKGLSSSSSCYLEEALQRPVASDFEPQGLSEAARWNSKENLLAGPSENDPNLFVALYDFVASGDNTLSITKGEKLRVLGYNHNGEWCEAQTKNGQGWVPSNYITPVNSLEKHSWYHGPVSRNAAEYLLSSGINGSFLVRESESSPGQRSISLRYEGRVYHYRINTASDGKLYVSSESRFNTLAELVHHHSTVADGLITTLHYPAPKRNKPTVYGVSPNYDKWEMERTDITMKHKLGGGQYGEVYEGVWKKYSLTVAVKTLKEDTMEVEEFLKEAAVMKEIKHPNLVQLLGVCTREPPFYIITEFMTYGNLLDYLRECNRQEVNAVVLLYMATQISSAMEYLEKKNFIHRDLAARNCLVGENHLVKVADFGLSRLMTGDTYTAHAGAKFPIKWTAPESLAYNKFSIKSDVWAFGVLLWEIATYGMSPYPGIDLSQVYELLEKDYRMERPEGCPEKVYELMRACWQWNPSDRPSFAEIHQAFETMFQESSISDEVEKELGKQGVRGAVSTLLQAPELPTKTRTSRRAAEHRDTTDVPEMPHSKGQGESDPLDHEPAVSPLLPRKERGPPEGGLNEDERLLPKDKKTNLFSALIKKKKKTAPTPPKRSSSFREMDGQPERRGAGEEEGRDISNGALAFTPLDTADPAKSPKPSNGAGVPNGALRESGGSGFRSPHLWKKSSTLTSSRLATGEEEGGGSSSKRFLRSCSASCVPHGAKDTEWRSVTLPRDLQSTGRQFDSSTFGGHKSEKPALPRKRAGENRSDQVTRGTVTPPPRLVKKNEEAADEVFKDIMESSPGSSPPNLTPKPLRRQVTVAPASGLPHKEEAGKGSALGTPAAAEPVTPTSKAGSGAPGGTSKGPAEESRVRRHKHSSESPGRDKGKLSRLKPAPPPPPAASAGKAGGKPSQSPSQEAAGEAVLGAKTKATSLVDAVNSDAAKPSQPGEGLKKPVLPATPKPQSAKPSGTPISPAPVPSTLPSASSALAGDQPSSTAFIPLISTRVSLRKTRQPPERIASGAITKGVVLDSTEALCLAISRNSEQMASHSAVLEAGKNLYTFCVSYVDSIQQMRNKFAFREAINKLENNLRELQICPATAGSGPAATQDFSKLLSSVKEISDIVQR
Chain of UniProt P51531 (whole entry, unmodified, looked up): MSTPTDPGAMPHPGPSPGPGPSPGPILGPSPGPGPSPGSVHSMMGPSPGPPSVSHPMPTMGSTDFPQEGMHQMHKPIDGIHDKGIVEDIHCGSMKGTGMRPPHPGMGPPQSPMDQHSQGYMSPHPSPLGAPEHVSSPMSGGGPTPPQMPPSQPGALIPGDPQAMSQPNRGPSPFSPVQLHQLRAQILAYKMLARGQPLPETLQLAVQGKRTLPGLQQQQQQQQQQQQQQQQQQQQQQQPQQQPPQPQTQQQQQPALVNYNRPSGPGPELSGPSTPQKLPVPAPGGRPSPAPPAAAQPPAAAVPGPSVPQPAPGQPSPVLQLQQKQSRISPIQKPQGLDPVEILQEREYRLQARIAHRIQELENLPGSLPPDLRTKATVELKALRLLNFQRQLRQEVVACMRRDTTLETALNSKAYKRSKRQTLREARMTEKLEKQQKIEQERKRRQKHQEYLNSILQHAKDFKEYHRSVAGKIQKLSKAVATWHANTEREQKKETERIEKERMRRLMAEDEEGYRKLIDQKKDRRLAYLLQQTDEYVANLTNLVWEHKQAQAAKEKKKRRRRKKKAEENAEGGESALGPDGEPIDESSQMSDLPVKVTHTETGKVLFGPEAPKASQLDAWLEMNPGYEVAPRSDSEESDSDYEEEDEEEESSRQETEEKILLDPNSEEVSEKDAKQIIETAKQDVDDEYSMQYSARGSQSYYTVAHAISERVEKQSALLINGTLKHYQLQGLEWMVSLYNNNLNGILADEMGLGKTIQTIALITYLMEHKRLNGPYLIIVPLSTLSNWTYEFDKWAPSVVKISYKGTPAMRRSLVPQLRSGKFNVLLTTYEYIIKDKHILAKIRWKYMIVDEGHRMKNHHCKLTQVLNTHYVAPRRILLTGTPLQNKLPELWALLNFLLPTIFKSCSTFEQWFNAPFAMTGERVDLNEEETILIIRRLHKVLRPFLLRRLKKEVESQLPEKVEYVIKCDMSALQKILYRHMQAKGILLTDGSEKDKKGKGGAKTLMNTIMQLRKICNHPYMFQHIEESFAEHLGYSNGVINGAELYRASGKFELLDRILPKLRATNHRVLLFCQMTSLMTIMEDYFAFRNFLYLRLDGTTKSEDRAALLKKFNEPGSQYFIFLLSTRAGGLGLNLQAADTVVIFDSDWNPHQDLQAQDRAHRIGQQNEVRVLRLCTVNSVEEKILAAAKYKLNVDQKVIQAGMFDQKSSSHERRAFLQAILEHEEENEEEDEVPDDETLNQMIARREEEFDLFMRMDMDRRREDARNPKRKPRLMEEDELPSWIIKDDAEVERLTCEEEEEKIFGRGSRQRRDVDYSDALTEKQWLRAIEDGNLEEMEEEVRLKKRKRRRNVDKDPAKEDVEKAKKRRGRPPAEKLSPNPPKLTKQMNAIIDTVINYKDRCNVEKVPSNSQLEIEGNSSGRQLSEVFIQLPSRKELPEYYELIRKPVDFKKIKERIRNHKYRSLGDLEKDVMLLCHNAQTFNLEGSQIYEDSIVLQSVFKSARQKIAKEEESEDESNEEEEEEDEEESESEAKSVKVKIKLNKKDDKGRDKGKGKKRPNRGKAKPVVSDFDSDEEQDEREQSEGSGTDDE

COc1cc(-c2cn(C)c(=O)c3cnccc23)cc(OC)c1CN(C)C — ΔTm (SWI/SNF-related matrix-associated actin-dependent regulator of chromatin subfamily A member 2, isoform B (SMARCA2, Homo sapiens, UniProt P51531)): -0.5 °C
Cc1ccc(C2CCN(C3Cc4ccccc4CC3O)CC2)cc1 (racemic) — selectivity ratio (Vesicular acetylcholine transporter (Rattus norvegicus, UniProt Q62666); rat liver (sigma2); reference: Ki sigma2 over Ki VAChT): 11
Cc1cc(=O)oc2cc(NC(=O)CCCCCCC(=O)NO)ccc12 — binding stoichiometry (HDAC8 (Homo sapiens, UniProt Q9BY41); ITC; triethanolamine buffer; concentration not given, pH 7.5): 0.85
Cc1nnc(NC(=O)c2ccc([C@@H]3C[C@H]3NC3CCC3)cc2)s1 (racemic) — remaining activity (KDM1A; demethylase activity, inhibitor; 0.2058 µM, with: H3K4me2 peptide): 68.6%
CC(=O)N[C@@H](CO)C(=O)N[C@H](C(=O)N[C@@H](CCC(=O)O)C(=O)N[C@H](C(=O)N[C@@H](CC(=O)O)C(=O)COC(=O)c1c(C)cccc1C)C(C)C)C(C)(C)C — kinact/KI (CASP1; enzyme activity, inhibitor): 26900 M⁻¹ s⁻¹
Cc1cc(C(=O)Nc2nc3cccc(C)c3n2[C@H]2CCCCN(C(=O)/C=C/CN(C)C)C2)ccn1 — kinase activity (CDC2-like kinase 1 (Trypanosoma brucei brucei, UniProt Q382U0); ADP-Glo; 0.625 µM): 0.92%
COc1cc(C2C(NC(=O)c3ccc(NC(=O)OC(C)(C)C)cc3)(C(=O)O)C(c3ccc(OC(=O)c4cccs4)c(OC)c3)C2(NC(=O)c2ccc(NC(=O)OC(C)(C)C)cc2)C(=O)O)ccc1OC(=O)c1cccs1 (centres unmarked) — Emax (GLP1R (Homo sapiens, UniProt P43220, R380A); cAMP accumulation, agonist; receptor mutant; reference: wild type): 68.2 ± 7.12%
CC[C@H](C)[C@H](NC(=O)CN1CC=CCCC(=O)N[C@@H](Cc2ccccc2)C(=O)N[C@@H](CCC(=O)O)C1=O)C(=O)N[C@@H](Cc1ccc(O)cc1)C(=O)N[C@@H](CCCNC(=N)N)C(=O)N[C@@H](CC(C)C)C(=O)N[C@@H](CCC(=O)O)C(=O)N[C@@H](CC(C)C)C(=O)N[C@@H](CC(C)C)C(=O)N[C@@H](CCCCN)C(N)=O — nucleotide exchange activity (GTPase HRas, with SOS1 catalytic domain (HRAS, Homo sapiens, UniProt P01112); inhibitor, mant-GDP release; 25 µM, with: Sos): inactive
CCCCCCCCCCCCCCCC(=O)OCC(CSC[C@H](N)C(=O)N[C@@H](CO)C(=O)N[C@@H](CCCCN)C(=O)N[C@@H](CCCCN)C(=O)N[C@@H](CCCCN)C(=O)N[C@@H](CCCCN)C(=O)NCCCCCC(=O)N[C@@H](CCCCN)C(=O)N[C@@H](CC(C)C)C(=O)N[C@H](C(=O)N[C@@H](Cc1ccccc1)C(=O)N[C@@H](Cc1ccccc1)C(=O)N[C@@H](Cc1ccc2ccccc2c1)C(=O)O)C(C)C)OC(=O)CCCCCCCCCCCCCCC (some centres unmarked) — fibril diameter (Amyloid-beta precursor protein, fibrillar amyloid-beta (APP, Homo sapiens, UniProt P05067); TEM; 2.0 eq, 18 h, fibril 3, with: APP 20 µM): 16.2 nm
Cc1cc2nc3c(=O)[nH]c(=O)nc-3n(C[C@H](O)[C@H](O)[C@H](O)COP(=O)(O)O)c2cc1C — binding (T1, FMN riboswitch RNA 1-247 C175U/G176C (Escherichia coli); RNase H cleavage; with: FMN 100 µM): binds
CC(C)Oc1cc(Cl)ccc1CNc1cc(-c2ccccc2)nc2ncnn12 — cAMP luminescence (GPR3 (Homo sapiens, UniProt P46089, L136A); cAMP level, cAMP GloSensor; 10 nM; higher = more cAMP): 38900 a.u. and 57300 a.u. and 51000 a.u. and 50400 a.u.
Cc1cnc2nc1Nc1cccc(c1)COC/C=C/COCc1cc(ccc1OCCN1CCOCC1)N2 — remaining binding (ABL1 (Homo sapiens, UniProt P00519, H396P); 0.1 µM; reference: DMSO control): 62%
CC(C)[C@@H]1NC(=O)[C@H](Cc2ccccc2)NC(=O)CSC[C@@H](C(N)=O)NC(=O)[C@H](CCC(=O)O)NC(=O)[C@H](CO)NC(=O)[C@H](Cc2c[nH]c3cccc(Cl)c23)NC(=O)[C@H](C2CCCCC2)NC(=O)[C@H](C(C)C)NC(=O)[C@H](Cc2ccc(O)cc2)NC(=O)[C@H](CC(=O)O)NC(=O)[C@H](Cc2c[nH]c3ccccc23)NC(=O)[C@H](Cc2ccc(N)nc2)NC(=O)[C@H](Cc2c[nH]c3ccc(Cl)cc23)NC(=O)[C@H](CCC(=O)O)NC1=O — remaining activity (Interleukin-1 receptor-like 2 (IL1RL2, Homo sapiens, UniProt Q9HB29); reporter gene (SEAP), inhibitor, HEK-Blue IL-36R reporter; HEK-Blue IL-36R cells; 3.7 µM, 6 h, with: IL-36γ 100 ng/mL): 106%
CC[C@H](NC(=O)[C@@H](NC(=O)[C@H](CC(=O)O)NC(C)=O)[C@@H](C)O)C(=O)N[C@@H](CC(=O)O)C(=O)COC(=O)c1c(C)cccc1C — kinact/KI (CASP1; enzyme activity, inhibitor): 32000 M⁻¹ s⁻¹
O=C(Nc1nncs1)c1cccc([C@@H]2C[C@H]2NC2CCC2)c1 — remaining activity (KDM1A; demethylase activity, inhibitor, Amplex Red; 0.02469 µM, with: H3K4me2 peptide; reference: vehicle): 105%
O=C(NC[C@@H](Cc1ccc(F)cc1)N1CCC(O)(C(F)(F)F)CC1)C1(c2ccc(Cl)cc2)CCCC1 — activity (Trpa1 (Rattus norvegicus, UniProt Q6RI86, G878V); rat; dose not given): inactive
COC(=O)[C@]1(C)C=C(C(=O)Nc2cccc(C(=O)Nc3ccc(Nc4nccc(-c5cccnc5)n4)c(C)c3)c2)C(=O)CC1 — koff (MAPK8 (Homo sapiens, UniProt P45983, C116S); binding, SPR; 100, 300, 1000 nM, 1:1 binding model): 0.0535 s⁻¹
O=C(O)C1OC(Oc2cccc(-c3oc4ccccc4c(=O)c3O)c2)C(O)C(O)C1O (centres unmarked) — Vmax (UGT1A1 (Homo sapiens, UniProt P22309); glucuronidation; cell lysate): 5120 ± 128 pmol/min/mg
CC(=O)N[C@@H](CC(=O)O)C(=O)N[C@@H](CO)C(=O)N[C@H](C(=O)N[C@@H](CC(=O)O)C(=O)COC(=O)c1c(C)cccc1C)C(C)C — kinact/KI (CASP1; enzyme activity, inhibitor): 14700 M⁻¹ s⁻¹
Cc1cc(=O)oc2c(F)c(OP(=O)(O)O)c(F)cc12 — Km (Phosphoribosylformylglycinamidine synthase (Homo sapiens, UniProt O15067); substrate): 108 ± 6.6 µM
O=C(CN1CCCN(C(=O)CN2CCCN(Cc3cccc4cnccc34)CC2)CC1)Nc1cccc(-c2nc3ccccc3[nH]2)c1 — Kd (T2, ssRNA, hairpin with 1x1 G/G internal loops (Homo sapiens); BLI; read off a plot): > 40 µM
Cc1ccc(C[C@H](NC(=O)CN2CCCc3cc4cc(C(=O)NCCNC(=O)CCCC[C@@H]5SC[C@@H]6NC(=O)N[C@@H]65)c(=O)oc4cc32)C(=O)NC/C=C/S(=O)(=O)c2ccccc2)cc1 — kinact/Ki (Procathepsin L (CTSL, Homo sapiens, UniProt P07711); inhibitor; with: Z-Phe-Arg-pNA): 13600 M⁻¹ s⁻¹
O=C1c2sc(-c3ccc(N4CCC(CO)CC4)nc3F)nc2CCN1c1cccnc1 — specific binding (TAR DNA-binding protein 43, aggregated (TARDBP, Homo sapiens, UniProt Q13148); autoradiography; human, sections, FTLD-TDP, type A; 10 nM; higher = more binding): 2.42 a.u. and 4.56 a.u. and 3.67 a.u. and 2.46 a.u. and 3.68 a.u. and 2.35 a.u. and 2.82 a.u.
CCCCOc1ccc(C(=O)OCCN2CC=CCC2)cc1 — basal binding (CHRM4 (Homo sapiens, UniProt P08173); membranes; 10 µM, 15 h, no carbachol; reference: control): 1.23 ± 0.06 fold
CC[C@H](C)[C@H](NC(C)=O)C(=O)N[C@@H](CCC(=O)O)C(=O)N[C@H](C(=O)N[C@@H](CC(=O)O)C(=O)COC(=O)c1c(C)cccc1C)[C@@H](C)O — kinact/KI (CASP1; enzyme activity, inhibitor): 94500 M⁻¹ s⁻¹
O=S(=O)(c1cccc(Br)c1)N1CCC1c1ccccc1 (centres unmarked) — IC50 (Rhomboid protease AarA; enzyme activity, inhibitor, fluorogenic peptide substrate): inactive
O=C(N1CCCC1)n1cc(-c2ccc(-c3ccccc3)cc2)nn1 — SILAC activity ratio (Phospholipase DDHD1 (Ddhd1, Mus musculus, UniProt Q80YA3); probe labelling, inhibitor, competitive ABPP-SILAC, measured: Ddhd1; mouse T cells; concentration not given, 4 h, single peptide; reference: treated over DMSO cells, lower = stronger inhibition): 1.65 and 1.38 and 1.32 and 1.42
COc1ccc(Cl)cc1NC(=O)C1CCCC1 — IC50 (Rhomboid protease AarA; enzyme activity, inhibitor, fluorogenic peptide substrate): inactive
CCCCCC=CC=C1C(=O)C=CC1CC=CCCCC(=O)O (centres unmarked) — isoTOP-ABPP competition ratio (ADP-ribose glycohydrolase MACROD1 (Homo sapiens, UniProt Q9BQ69); competitive isoTOP-ABPP; Ramos soluble proteome; 100 µM, 60 min, with: iodoacetamide probe; reference: DMSO over compound-treated, higher = stronger cysteine blockade): 2.9
CC(=O)C12NC(C)(C)CC1(C)C(=O)C1=C2c2c(c3c4n2C(C)(C)CC2=C4C4(CC(C)(C)NC(C)(C4)C2=O)CC3(C)C)C(=O)C(C)(C)N1 (single isomer, unassigned; (+)) — activation (OPRD1 (Homo sapiens, UniProt P41143); cAMP level, agonist, LANCE Ultra cAMP; CHO; 50 µM): 3.99%
CCCCCC(O)/C=C/C=O (centres unmarked) — probe labelling ratio (CBS (Homo sapiens, UniProt P35520); acylphosphate-ATP probe SILAC-ABPP; ZAK-transfected HEK293T; 100 µM, with: acylphosphate-ATP probe; reference: DMSO over compound-treated): 0.58
CN(C)c1ccc(C2C(C#N)=C(N)Oc3n[nH]c(-c4cccc5ccccc45)c32)cc1 (centres unmarked) — kon (Heat shock protein HSP 90-alpha, N-terminal domain (HSP90AA1, Homo sapiens, UniProt P07900); SPR, two-state model; N-terminal domain): 2860 ± 2790 M⁻¹ s⁻¹

Some of these lines once more:
O=C(NC[C@@H](Cc1ccc(F)cc1)N1CCC(O)(C(F)(F)F)CC1)C1(c2ccc(Cl)cc2)CCCC1 — activity (Trpa1 (Rattus norvegicus, UniProt Q6RI86, G878V); rat; dose not given): inactive
COC(=O)[C@]1(C)C=C(C(=O)Nc2cccc(C(=O)Nc3ccc(Nc4nccc(-c5cccnc5)n4)c(C)c3)c2)C(=O)CC1 — koff (MAPK8 (Homo sapiens, UniProt P45983, C116S); binding, SPR; 100, 300, 1000 nM, 1:1 binding model): 0.0535 s⁻¹
O=C(O)C1OC(Oc2cccc(-c3oc4ccccc4c(=O)c3O)c2)C(O)C(O)C1O (centres unmarked) — Vmax (UGT1A1 (Homo sapiens, UniProt P22309); glucuronidation; cell lysate): 5120 ± 128 pmol/min/mg
